{"data": "Results from different studies", "note": "Each numbered part is a random draw from the data of one study; scales do not carry over between parts. “And” joins repeats or separate records; there may be more than shown.", "chain of UniProt Q99759 (whole entry, looked up)": "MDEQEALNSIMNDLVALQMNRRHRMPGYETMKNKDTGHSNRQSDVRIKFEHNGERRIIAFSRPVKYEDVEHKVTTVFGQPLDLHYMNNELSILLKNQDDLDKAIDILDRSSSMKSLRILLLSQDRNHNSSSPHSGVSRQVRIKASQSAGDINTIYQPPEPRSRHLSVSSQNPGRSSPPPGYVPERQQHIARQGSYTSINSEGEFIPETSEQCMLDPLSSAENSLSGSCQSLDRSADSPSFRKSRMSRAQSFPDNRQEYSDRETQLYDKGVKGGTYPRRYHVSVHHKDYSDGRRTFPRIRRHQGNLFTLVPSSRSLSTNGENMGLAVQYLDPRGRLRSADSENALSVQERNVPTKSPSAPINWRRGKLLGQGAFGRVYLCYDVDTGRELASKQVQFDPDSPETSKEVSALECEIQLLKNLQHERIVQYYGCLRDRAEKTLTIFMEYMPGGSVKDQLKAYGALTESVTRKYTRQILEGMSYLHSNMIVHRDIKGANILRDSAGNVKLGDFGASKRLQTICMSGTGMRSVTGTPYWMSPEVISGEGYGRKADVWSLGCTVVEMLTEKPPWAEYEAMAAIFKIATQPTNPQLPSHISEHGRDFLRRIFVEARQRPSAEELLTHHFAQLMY", "chain of UniProt Q14164 (whole entry, looked up)": "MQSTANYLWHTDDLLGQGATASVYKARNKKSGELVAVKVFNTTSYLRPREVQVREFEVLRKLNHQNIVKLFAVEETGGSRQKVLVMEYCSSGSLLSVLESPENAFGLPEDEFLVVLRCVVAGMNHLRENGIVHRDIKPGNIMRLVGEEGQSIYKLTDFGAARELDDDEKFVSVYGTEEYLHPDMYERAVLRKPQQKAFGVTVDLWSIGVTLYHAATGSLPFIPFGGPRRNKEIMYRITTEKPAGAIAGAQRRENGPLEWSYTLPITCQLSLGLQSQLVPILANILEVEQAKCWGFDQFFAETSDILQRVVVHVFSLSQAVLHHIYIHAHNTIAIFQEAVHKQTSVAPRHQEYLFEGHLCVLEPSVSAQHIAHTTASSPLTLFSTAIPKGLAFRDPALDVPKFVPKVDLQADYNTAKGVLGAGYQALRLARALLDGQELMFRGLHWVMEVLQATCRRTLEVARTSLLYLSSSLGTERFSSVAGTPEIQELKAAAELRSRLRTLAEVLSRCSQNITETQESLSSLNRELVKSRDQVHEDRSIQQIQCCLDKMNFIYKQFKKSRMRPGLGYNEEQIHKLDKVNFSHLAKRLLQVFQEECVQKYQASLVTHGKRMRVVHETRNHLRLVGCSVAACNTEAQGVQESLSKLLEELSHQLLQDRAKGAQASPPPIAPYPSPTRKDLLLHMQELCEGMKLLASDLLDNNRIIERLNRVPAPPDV", "chain of UniProt Q13557 (whole entry, looked up)": "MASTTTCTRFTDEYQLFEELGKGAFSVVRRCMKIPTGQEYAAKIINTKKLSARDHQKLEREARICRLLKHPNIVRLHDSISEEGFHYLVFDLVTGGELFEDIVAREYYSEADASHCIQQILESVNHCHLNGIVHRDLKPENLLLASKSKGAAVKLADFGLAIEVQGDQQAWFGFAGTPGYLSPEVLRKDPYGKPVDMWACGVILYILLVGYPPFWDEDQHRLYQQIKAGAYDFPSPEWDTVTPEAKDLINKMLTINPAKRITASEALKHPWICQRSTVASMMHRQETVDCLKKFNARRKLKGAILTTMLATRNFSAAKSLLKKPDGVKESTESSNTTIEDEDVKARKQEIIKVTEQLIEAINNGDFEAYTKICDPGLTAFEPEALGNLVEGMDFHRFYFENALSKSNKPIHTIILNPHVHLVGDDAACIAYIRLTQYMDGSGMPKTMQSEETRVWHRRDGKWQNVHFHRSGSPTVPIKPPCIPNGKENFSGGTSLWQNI", "chain of UniProt P53355 (whole entry, looked up)": "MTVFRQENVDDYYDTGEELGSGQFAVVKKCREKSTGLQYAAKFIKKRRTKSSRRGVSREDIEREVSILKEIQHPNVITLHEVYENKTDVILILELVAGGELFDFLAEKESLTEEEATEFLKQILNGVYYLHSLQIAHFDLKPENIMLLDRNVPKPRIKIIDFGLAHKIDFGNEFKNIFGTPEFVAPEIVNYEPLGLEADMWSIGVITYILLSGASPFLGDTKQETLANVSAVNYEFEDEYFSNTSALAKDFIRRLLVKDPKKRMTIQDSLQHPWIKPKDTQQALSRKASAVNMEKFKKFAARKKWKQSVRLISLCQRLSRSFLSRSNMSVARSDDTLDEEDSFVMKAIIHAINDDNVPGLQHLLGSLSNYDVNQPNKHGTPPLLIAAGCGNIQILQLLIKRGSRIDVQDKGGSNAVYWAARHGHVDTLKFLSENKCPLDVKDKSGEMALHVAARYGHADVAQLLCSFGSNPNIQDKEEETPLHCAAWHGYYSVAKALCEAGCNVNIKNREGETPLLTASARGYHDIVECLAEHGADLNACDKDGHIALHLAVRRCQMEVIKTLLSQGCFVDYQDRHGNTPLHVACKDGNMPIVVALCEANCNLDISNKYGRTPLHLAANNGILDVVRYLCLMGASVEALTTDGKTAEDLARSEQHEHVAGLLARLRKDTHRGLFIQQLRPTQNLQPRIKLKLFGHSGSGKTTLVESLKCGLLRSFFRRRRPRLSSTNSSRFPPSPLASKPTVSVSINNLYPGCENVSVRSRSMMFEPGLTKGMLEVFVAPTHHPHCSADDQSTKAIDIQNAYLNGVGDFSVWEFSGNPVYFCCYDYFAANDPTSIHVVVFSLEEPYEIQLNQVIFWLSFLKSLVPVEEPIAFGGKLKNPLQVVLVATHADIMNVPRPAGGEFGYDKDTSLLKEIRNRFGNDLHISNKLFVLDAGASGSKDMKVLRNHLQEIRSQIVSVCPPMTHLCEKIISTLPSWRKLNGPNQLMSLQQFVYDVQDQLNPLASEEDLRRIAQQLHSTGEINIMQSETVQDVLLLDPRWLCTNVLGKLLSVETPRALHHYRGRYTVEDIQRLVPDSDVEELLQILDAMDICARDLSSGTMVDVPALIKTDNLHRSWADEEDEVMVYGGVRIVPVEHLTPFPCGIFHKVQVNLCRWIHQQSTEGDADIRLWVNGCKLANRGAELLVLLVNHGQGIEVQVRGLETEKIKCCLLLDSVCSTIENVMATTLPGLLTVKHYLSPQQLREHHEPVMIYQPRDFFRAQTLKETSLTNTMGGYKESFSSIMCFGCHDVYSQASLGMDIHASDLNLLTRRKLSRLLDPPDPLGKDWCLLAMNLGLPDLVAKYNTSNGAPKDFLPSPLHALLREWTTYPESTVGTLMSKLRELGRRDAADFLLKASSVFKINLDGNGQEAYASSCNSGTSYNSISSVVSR", "chain of UniProt P42336 (whole entry, unmodified, looked up)": "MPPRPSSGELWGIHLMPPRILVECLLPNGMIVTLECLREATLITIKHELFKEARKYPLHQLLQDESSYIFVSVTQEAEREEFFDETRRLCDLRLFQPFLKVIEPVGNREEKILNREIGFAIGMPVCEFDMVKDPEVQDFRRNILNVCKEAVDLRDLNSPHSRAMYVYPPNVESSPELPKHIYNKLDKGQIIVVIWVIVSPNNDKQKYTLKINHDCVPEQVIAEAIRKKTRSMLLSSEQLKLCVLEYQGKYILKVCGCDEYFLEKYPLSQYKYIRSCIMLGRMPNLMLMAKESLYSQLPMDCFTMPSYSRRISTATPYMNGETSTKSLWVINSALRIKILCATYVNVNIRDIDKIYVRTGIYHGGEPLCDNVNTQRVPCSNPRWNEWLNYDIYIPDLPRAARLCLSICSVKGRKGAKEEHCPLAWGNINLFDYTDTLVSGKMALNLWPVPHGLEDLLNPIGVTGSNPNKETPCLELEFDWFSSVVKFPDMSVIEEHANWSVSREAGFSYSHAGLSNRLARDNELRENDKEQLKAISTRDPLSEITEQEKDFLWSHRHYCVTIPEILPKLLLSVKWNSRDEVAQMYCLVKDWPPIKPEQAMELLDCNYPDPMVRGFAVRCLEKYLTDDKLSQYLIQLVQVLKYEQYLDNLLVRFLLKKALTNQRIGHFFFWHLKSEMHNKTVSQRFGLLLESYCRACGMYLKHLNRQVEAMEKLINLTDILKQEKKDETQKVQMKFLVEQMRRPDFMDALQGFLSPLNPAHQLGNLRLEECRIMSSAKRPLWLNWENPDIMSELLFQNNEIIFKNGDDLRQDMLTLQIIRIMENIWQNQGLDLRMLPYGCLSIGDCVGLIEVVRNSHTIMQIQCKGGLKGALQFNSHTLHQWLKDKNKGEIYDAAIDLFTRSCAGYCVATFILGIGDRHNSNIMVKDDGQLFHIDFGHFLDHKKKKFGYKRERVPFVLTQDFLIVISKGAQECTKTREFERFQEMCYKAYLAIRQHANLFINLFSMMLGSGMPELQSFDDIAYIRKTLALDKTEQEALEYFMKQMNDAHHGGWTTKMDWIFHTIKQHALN", "chain of UniProt O00238 (whole entry, looked up)": "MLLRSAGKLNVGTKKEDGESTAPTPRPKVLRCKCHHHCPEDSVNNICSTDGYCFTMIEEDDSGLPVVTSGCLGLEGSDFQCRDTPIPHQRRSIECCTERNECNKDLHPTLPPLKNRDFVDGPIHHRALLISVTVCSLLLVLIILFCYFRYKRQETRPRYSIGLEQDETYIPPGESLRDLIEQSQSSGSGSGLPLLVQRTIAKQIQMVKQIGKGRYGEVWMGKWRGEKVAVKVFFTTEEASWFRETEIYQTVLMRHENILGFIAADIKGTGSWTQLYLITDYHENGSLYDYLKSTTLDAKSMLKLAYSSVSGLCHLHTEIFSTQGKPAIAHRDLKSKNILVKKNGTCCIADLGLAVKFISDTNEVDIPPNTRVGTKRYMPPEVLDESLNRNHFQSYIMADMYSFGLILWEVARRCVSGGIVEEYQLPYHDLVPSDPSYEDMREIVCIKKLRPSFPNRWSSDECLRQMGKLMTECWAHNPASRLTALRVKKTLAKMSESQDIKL"}
{"data": "Block 1", "Compound": "CC(=O)N1CCC(c2ccc(C(=O)NC3=NCCN3)cc2C(F)(F)F)CC1", "tested at": "1 µM"}
{"target": "AP2-associated protein kinase 1 (AAK1, Homo sapiens, UniProt Q2M2I8)", "effect on": "binding", "remaining binding": "100%"}
{"target": "Serine/threonine-protein kinase 16 (STK16, Homo sapiens, UniProt O75716)", "effect on": "cell-free assay", "technique": "competition with immobilised ligand", "remaining binding": "100%"}
{"target": "Phosphatidylinositol 4,5-bisphosphate 3-kinase catalytic subunit alpha isoform (PIK3CA, Homo sapiens, UniProt P42336, Q546K)", "effect on": "cell-free assay", "technique": "competition with immobilised ligand", "remaining binding": "100%"}
{"target": "Bone morphogenetic protein receptor type-1B (BMPR1B, Homo sapiens, UniProt O00238)", "effect on": "cell-free assay", "technique": "competition with immobilised ligand", "remaining binding": "89%"}
{"target": "Myosin light chain kinase family member 4 (MYLK4, Homo sapiens, UniProt Q86YV6)", "effect on": "cell-free assay", "technique": "competition with immobilised ligand", "remaining binding": "100%"}
{"target": "Mitogen-activated protein kinase kinase kinase 3 (MAP3K3, Homo sapiens, UniProt Q99759)", "effect on": "cell-free assay", "technique": "competition with immobilised ligand", "remaining binding": "100%"}
{"target": "Serine/threonine-protein kinase SIK2 (SIK2, Homo sapiens, UniProt Q9H0K1)", "effect on": "cell-free assay", "technique": "competition with immobilised ligand", "remaining binding": "100%"}
{"target": "Tyrosine-protein kinase HCK (HCK, Homo sapiens, UniProt P08631)", "effect on": "cell-free assay", "technique": "competition with immobilised ligand", "remaining binding": "100%"}
{"target": "Epidermal growth factor receptor (EGFR, Homo sapiens, UniProt P00533, L858R)", "effect on": "cell-free assay", "technique": "competition with immobilised ligand", "remaining binding": "100%"}
{"target": "Cyclin-dependent kinase 17 (CDK17, Homo sapiens, UniProt Q00537)", "effect on": "cell-free assay", "technique": "competition with immobilised ligand", "remaining binding": "89%"}
{"target": "Mitogen-activated protein kinase kinase kinase kinase 2 (MAP4K2, Homo sapiens, UniProt Q12851)", "effect on": "cell-free assay", "technique": "competition with immobilised ligand", "remaining binding": "100%"}
{"target": "Ribosomal protein S6 kinase alpha-4, N-terminal kinase domain (RPS6KA4, Homo sapiens, UniProt O75676)", "effect on": "cell-free assay", "technique": "competition with immobilised ligand", "remaining binding": "100%"}
{"target": "Proto-oncogene tyrosine-protein kinase Src (SRC, Homo sapiens, UniProt P12931)", "effect on": "cell-free assay", "technique": "competition with immobilised ligand", "remaining binding": "99%"}
{"target": "Cyclin-dependent kinase 19 (CDK19, Homo sapiens, UniProt Q9BWU1)", "technique": "competition binding", "remaining binding": "100%"}
{"target": "Myotonin-protein kinase (DMPK, Homo sapiens, UniProt Q09013)", "effect on": "cell-free assay", "technique": "competition with immobilised ligand", "remaining binding": "100%"}
{"data": "Block 2", "SMILES": "COc1ccc(-c2cnc3c(-c4ccsc4)cnn3c2)cc1", "effect on": "enzyme activity", "action": "inhibitor", "tested at": "0.5 µM", "relative to": "control"}
{"target": "Mitogen-activated protein kinase 9 (MAPK9, Homo sapiens, UniProt P45984)", "remaining activity [%]": 104}
{"target": "Protein kinase C alpha type (PRKCA, Homo sapiens, UniProt P17252)", "remaining activity [%]": 101}
{"target": "cAMP-dependent protein kinase catalytic subunit alpha (PRKACA, Homo sapiens, UniProt P17612)", "remaining activity [%]": 96.1}
{"target": "Serine/threonine-protein kinase Nek2 (NEK2, Homo sapiens, UniProt P51955)", "remaining activity [%]": 90.2}
{"target": "Death-associated protein kinase 2 (DAPK2, Homo sapiens, UniProt Q9UIK4)", "remaining activity [%]": 87.4}
{"target": "Cyclin-dependent kinase 5, with p25 (CDK5, Homo sapiens, UniProt Q00535)", "remaining activity [%]": 73}
{"target": "Protein kinase C beta type, isoform beta-I (PRKCB, Homo sapiens, UniProt P05771)", "remaining activity [%]": 101}
{"target": "Death-associated protein kinase 1 (DAPK1, Homo sapiens, UniProt P53355)", "remaining activity [%]": 103}
{"target": "Mitogen-activated protein kinase kinase kinase 3 (MAP3K3, Homo sapiens, UniProt Q99759)", "remaining activity [%]": 99.4}
{"target": "TGF-beta receptor type-2 (TGFBR2, Homo sapiens, UniProt P37173)", "remaining activity [%]": 84.1}
{"target": "Tyrosine-protein kinase Lyn, isoform B (LYN, Homo sapiens, UniProt P07948)", "remaining activity [%]": 92.7}
{"target": "Inhibitor of nuclear factor kappa-B kinase subunit epsilon (IKBKE, Homo sapiens, UniProt Q14164)", "remaining activity [%]": 85.5}
{"target": "cGMP-dependent protein kinase 1, isoform beta (PRKG1, Homo sapiens, UniProt Q13976)", "remaining activity [%]": 89.1}
{"target": "Calcium/calmodulin-dependent protein kinase type II subunit delta (CAMK2D, Homo sapiens, UniProt Q13557)", "remaining activity [%]": 92}
{"target": "Serine/threonine-protein kinase 10 (STK10, Homo sapiens, UniProt O94804)", "remaining activity [%]": 81.6}
{"target": "Serine/threonine-protein kinase OSR1 (OXSR1, Homo sapiens, UniProt O95747)", "remaining activity [%]": 90.3}
{"target": "TGF-beta receptor type-1 (TGFBR1, Homo sapiens, UniProt P36897)", "remaining activity [%]": 98}
{"target": "Calcium/calmodulin-dependent protein kinase kinase 2 (CAMKK2, Homo sapiens, UniProt Q96RR4)", "remaining activity [%]": 72.9}
{"target": "Inhibitor of nuclear factor kappa-B kinase subunit beta (IKBKB, Homo sapiens, UniProt O14920)", "remaining activity [%]": 99.6}
{"target": "Serine/threonine-protein kinase Chk2 (CHEK2, Homo sapiens, UniProt O96017)", "remaining activity [%]": 89.1}
{"target": "G protein-coupled receptor kinase 3 (GRK3, Homo sapiens, UniProt P35626)", "remaining activity [%]": 97.8}
{"target": "STE20/SPS1-related proline-alanine-rich protein kinase (STK39, Homo sapiens, UniProt Q9UEW8)", "remaining activity [%]": 95.1}
{"data": "Block 3", "SMILES": "COc1cc(C(=O)OCCCN2CCCN(CCCOC(=O)c3cc(OC)c(OC)c(OC)c3)CC2)cc(OC)c1OC"}
{"technique": "von Frey test", "species": "mouse, STZ diabetic neuropathy", "route": "subcutaneous", "dose": "30 mg/kg, second of three doses", "time": "5 h", "paw withdrawal frequency": "0.08 fraction of stimuli and 0.36 fraction of stimuli and 0.17 fraction of stimuli and 0.13 fraction of stimuli and 0.32 fraction of stimuli"}
{"technique": "von Frey, 0.4 g filament", "species": "mouse, CFA inflammatory pain", "route": "intravenous", "dose": "dose not given", "time": "5 h post-dose", "setting": "second injection, day 3", "paw withdrawal frequency": "90% and 80% and 70%"}
{"technique": "von Frey, 0.4 g filament", "species": "mouse, CFA inflammatory pain", "route": "subcutaneous", "dose": "10 mg/kg", "time": "5 h post-dose", "setting": "second injection, day 3", "paw withdrawal frequency": "80% and 70% and 60%"}
{"technique": "von Frey, 0.4 g filament", "species": "mouse, CFA inflammatory pain", "route": "subcutaneous", "dose": "10 mg/kg", "time": "3 h post-dose", "setting": "third injection, day 5", "paw withdrawal frequency": "70% and 60% and 80% and 90%"}
{"technique": "von Frey, 0.4 g filament", "species": "mouse, CFA inflammatory pain", "route": "intravenous", "dose": "dose not given", "time": "24 h post-dose", "setting": "first injection, day 1", "paw withdrawal frequency": "100% and 90% and 70% and 80%"}
{"technique": "von Frey, 0.4 g filament", "species": "mouse, CFA inflammatory pain", "route": "intravenous", "dose": "dose not given", "time": "3 h post-dose", "setting": "first injection, day 1", "paw withdrawal frequency": "90% and 80% and 70%"}
{"technique": "von Frey, 0.4 g filament", "species": "mouse, CFA inflammatory pain", "route": "subcutaneous", "dose": "10 mg/kg", "time": "5 h post-dose", "setting": "first injection, day 1", "paw withdrawal frequency": "70% and 60% and 90% and 80%"}
{"technique": "von Frey test", "species": "mouse, STZ diabetic neuropathy", "route": "subcutaneous", "dose": "30 mg/kg, second of three doses", "time": "1 h", "paw withdrawal frequency": "0.75 fraction of stimuli and 0.1 fraction of stimuli and 0.23 fraction of stimuli and 0.29 fraction of stimuli"}
{"data": "Block 4", "Structure (SMILES)": "c1ccc(Oc2ccc(Nc3c4c(nc5ccccc35)CCC4)cc2)cc1", "organism": "Leishmania infantum chagasi", "technique": "qPCR", "species": "golden hamster chronic infection", "medium": "liver", "route": "oral", "dose": "10 mg/kg/day", "time": "10 days"}
{"refers to": "TNF mRNA", "threshold cycle": "34.3 cycles and 29 cycles and 29.3 cycles and 30.3 cycles and 28.8 cycles and 30 cycles"}
{"refers to": "IL10 mRNA", "threshold cycle": "32.2 cycles and 33.1 cycles and 36.8 cycles and 34.9 cycles and 36 cycles and 36.7 cycles"}
{"refers to": "IL4 mRNA", "threshold cycle": "35.9 cycles and 30.2 cycles and 29.7 cycles and 28.5 cycles and 29.2 cycles"}
{"note": "A few entries again (block 2):"}
{"target": "TGF-beta receptor type-2 (TGFBR2, Homo sapiens, UniProt P37173)", "remaining activity [%]": 84.1}
{"target": "Serine/threonine-protein kinase 10 (STK10, Homo sapiens, UniProt O94804)", "remaining activity [%]": 81.6}
{"target": "Serine/threonine-protein kinase Nek2 (NEK2, Homo sapiens, UniProt P51955)", "remaining activity [%]": 90.2}
{"target": "Death-associated protein kinase 2 (DAPK2, Homo sapiens, UniProt Q9UIK4)", "remaining activity [%]": 87.4}
{"target": "cAMP-dependent protein kinase catalytic subunit alpha (PRKACA, Homo sapiens, UniProt P17612)", "remaining activity [%]": 96.1}
